# Measurements of several laboratories.
# Each line is one published result; not all experiments were run side by side. Several values in a cell are separate wells, animals, samples, runs or records. Numbers after ± are the reported error.
Compound,assay,system,conditions,scale,endpoint,result
"O=C(c1ccc(F)cc1)C1CCN(C2Cc3c(cccc3OCC[18F])CC2O)CC1 (single isomer, unassigned; (-))",,"Sprague-Dawley rat, male, blood","intravenous, dose not given, 30 min",,tissue uptake,0.27 ± 0.033 %ID/g
O=C(O)CCC(NP(=O)(O)OCCC[C@@H](NC(=O)CCC(NC(=O)CCCCCNC(=O)CCCCCNC(=O)c1ccc([18F])cc1)C(=O)O)C(=O)O)C(=O)O (some centres unmarked),radioactivity biodistribution,"mouse, PC-3 xenograft, tumour, blood",2 h,,tumour/blood ratio,11.2 ± 1.31
CCCCCCCCCCCCC(=O)O.O=C1CCCC2C3CCCN4CCCC(CN12)C34 (centres unmarked),,water,"concentration not given, 293.15 K",,critical micelle concentration,0.00235 mol/kg
CSCC[C@H](NC(=O)CNC(=O)[C@H](CCCCN)NC(=O)[C@H](CC(C)C)NC(=O)[C@@H]1CCCN1C(=O)[C@H](CO)NC(=O)[C@H](Cc1c[nH]cn1)NC(=O)[C@H](Cc1c[nH]c2ccccc12)NC(=O)[C@H](CCCNC(=N)N)NC(=O)[C@H](CC(C)C)NC(=O)[C@H](CCCNC(=N)N)NC(=O)[C@H](Cc1c[nH]c2ccccc12)NC(=O)[C@H](CS)NC(=O)CCCCCNC(=O)CN1CCN(CC(=O)O)CCN(CC(=O)O)CCN(CC(=O)O)CC1)C(=O)O [copper-64 labelled],,"BALB/c nude mice, Huh-7 xenograft, tumour","intravenous, 1.85 MBq, 18 h",,tumour uptake,6.19 %ID/g
CCNc1cc2[o+]c3cc(NCC)c(C)cc3c(-c3ccccc3C(=O)OCCOCC[18F])c2cc1C,,rat,15 min,reference: heart over blood,tissue uptake ratio,10.1
CCCCCCCCCCCCCCCC(=O)N[C@@H](CCC(=O)NCCCC[C@H](NC(=O)[C@H](CC(=O)O)NC(=O)[C@H](CO)NC(=O)[C@@H](NC(=O)[C@H](Cc1ccccc1)NC(=O)[C@@H](NC(=O)CNC(=O)[C@H](CCC(N)=O)NC(=O)[C@H](C)NC(=O)[C@@H](Cc1ccc(O)cc1)NC(C)=O)[C@@H](C)O)[C@@H](C)O)C(=O)N[C@@H](CO)C(=O)N[C@@H](CCCCN)C(=O)N[C@@H](Cc1ccc(O)cc1)C(=O)N[C@@H](CC(C)C)C(=O)N[C@@H](CC(=O)O)C(=O)N[C@@H](CCC(=O)O)C(=O)N[C@@H](CCCNC(=N)N)C(=O)N[C@@H](C)C(=O)N[C@@H](C)C(=O)N[C@@H](CCC(N)=O)C(=O)N[C@@H](CC(=O)O)C(=O)N[C@@H](Cc1ccccc1)C(=O)N[C@H](C(=O)N[C@@H](CCC(N)=O)C(=O)N[C@@H](Cc1c[nH]c2ccccc12)C(=O)N[C@@H](CC(C)C)C(=O)N[C@@H](CC(C)C)C(=O)N[C@@H](CCC(=O)O)C(=O)NCC(=O)NCC(=O)N1CCC[C@H]1C(=O)N[C@@H](CO)C(=O)N[C@@H](CO)C(=O)NCC(=O)N[C@@H](C)C(=O)N1CCC[C@H]1C(=O)N1CCC[C@H]1C(=O)N1CCC[C@H]1C(=O)N[C@@H](CO)C(N)=O)C(C)C)C(=O)O,Holter monitoring,human,"subcutaneous, 50 µg single dose, first 48 h",reference: baseline,heart rate increase,19 bpm
COC(=O)C[C@](O)(CCCC(C)(C)OC(C)=O)C(=O)O[C@@H]1C(OC)=C[C@]23CCCN2CCc2cc4c(cc2[C@H]13)OCO4,,"CD1 mouse, kidney","oral, 1 mg/kg, 2 h",,tissue concentration,185 ng/mL
CCCCCCCC(=O)SCC/C=C/[C@@H]1CC(=O)NCc2nc(cs2)C2=N[C@@](C)(CS2)C(=O)N[C@@H](C(C)C)C(=O)N1,,female NIH Swiss mice,"intravenous bolus, 5 mg/kg, two-compartment model",,mean residence time,108 min
O=P1(NCCCl)NCCCO1 (centres unmarked),,"rat, plasma","intravenous, 10 mg/kg CP, with: ketoconazole 10 mg/kg oral 50 min before",,Cmax,69.3 ± 22.2 ng/mL
COc1cc(NC(=O)C(=O)c2c(C)n(Cc3ccc(Cl)cc3)c3ccc(C)cc23)ccn1,,"cynomolgus monkey, female, plasma","intravenous, 1 mg/kg",,CL,8.16 mL/min/kg and 6.39 mL/min/kg and 20.2 mL/min/kg and 10.2 mL/min/kg and 9.69 mL/min/kg
O=c1cc(-c2ccccc2)oc2c(Br)c(O)c(O)c(O)c12,,"C57BL/6 mouse, plasma","po, 50 mg/kg",,CL,1060 ± 450 mL/h

# Excerpt of the above:
Compound,assay,system,conditions,scale,endpoint,result
COc1cc(NC(=O)C(=O)c2c(C)n(Cc3ccc(Cl)cc3)c3ccc(C)cc23)ccn1,,"cynomolgus monkey, female, plasma","intravenous, 1 mg/kg",,CL,8.16 mL/min/kg and 6.39 mL/min/kg and 20.2 mL/min/kg and 10.2 mL/min/kg and 9.69 mL/min/kg
O=c1cc(-c2ccccc2)oc2c(Br)c(O)c(O)c(O)c12,,"C57BL/6 mouse, plasma","po, 50 mg/kg",,CL,1060 ± 450 mL/h
